Measured values pooled from the literature.
Compare with care: the assays were run in different laboratories. ± gives the spread as reported.
Organism: Severe acute respiratory syndrome coronavirus 2

| Structure (SMILES) | observed | action | technique | cell line | strain | time | EC50 [µM] |
| --- | --- | --- | --- | --- | --- | --- | --- |
| C[C@@H](OC(C)(C)C)[C@H](NC(=O)OCc1ccccc1)C(=O)N[C@@H](Cc1ccccc1)C(=O)N[C@H](C=O)C[C@@H]1CCNC1=O | viral replication |  | plaque reduction | Vero E6 | USA-WA1/2020 | 3 days | 0.17 ± 0.02 |
| O=C(O[C@@H]1Cc2c(O)cc(O)cc2O[C@H]1c1cc(O)c(O)c(O)c1)c1cc(O)c(O)c(O)c1 | antiviral activity |  |  | Huh-7 |  | 96 h | > 100 |
| CN(C)C/C=C/C(=O)Nc1ccc(C(=O)Nc2cccc(Nc3cc(-c4c[nH]c5ccccc45)ncn3)c2)cc1 | viral replication | inhibitor | luciferase | Calu-3 |  |  | 0.2 |
| OC[C@H]1O[C@@H](Oc2cc3c(O)cc(O)cc3[o+]c2-c2ccc(O)c(O)c2)[C@H](O)[C@@H](O)[C@@H]1O | antiviral activity |  |  | Huh-7 |  | 96 h | > 100 |
| CC(C)C[C@H](NC(=O)[C@@H](NC(=O)OCc1ccccc1)C(C)C)C(=O)N[C@H](C=O)C[C@@H]1CCNC1=O | viral replication |  | plaque reduction | Vero E6 | USA-WA1/2020 | 3 days | > 5 |
| C[C@H](c1cccc2ccccc12)N1CCC(C(=O)NCc2cc(F)cc(NC(=O)N3CCN(C)CC3)c2)CC1 | viral replication |  |  | hACE2-HeLa |  | 48 h | 0.88 |
| CC(C)C[C@H](NC(=O)[C@@H](NC(=O)OCc1ccccc1)[C@@H](C)OC(C)(C)C)C(=O)N[C@H](C=O)C[C@@H]1CCNC1=O | viral replication |  | plaque reduction | Vero E6 | USA-WA1/2020 | 3 days | 0.21 ± 0.02 |
| O=C(c1ccc([N+](=O)[O-])c(-n2ccnc2)c1)N(c1cccc(Cl)c1)c1nc2ccccc2s1 | viral replication | inhibitor |  | A549-ACE2 |  |  | 7.2 |
| CN=c1nc(-c2ccccc2)n(-c2ccccc2)s1 | antiviral activity |  |  | Huh-7 |  | 96 h | > 100 |
| Cc1c(C(=O)N2c3ccccc3NC(=O)C2CC(=O)Nc2ccc(Cl)c(Cl)c2)oc2ccccc12 (stereo not drawn) | viral replication | inhibitor |  | A549-ACE2 |  |  | 4.7 |
| CC(C)[C@H](NC(=O)OCc1ccccc1)C(=O)N[C@@H](Cc1ccccc1)C(=O)N[C@H](C=O)C[C@@H]1CCNC1=O | viral replication |  | plaque reduction | Vero E6 | USA-WA1/2020 | 3 days | > 5 |
| CCOC(=O)/C=C/[C@H](C[C@@H]1CCNC1=O)NC(=O)[C@H](CC(C)C)NC(=O)[C@@H](NC(=O)OCc1ccccc1)[C@@H](C)OC(C)(C)C | viral replication | inhibitor |  | Vero C1008 |  | 72 h | 3.02 |

Excerpt of the above:
| Structure (SMILES) | observed | action | technique | cell line | strain | time | EC50 [µM] |
| --- | --- | --- | --- | --- | --- | --- | --- |
| CC(C)[C@H](NC(=O)OCc1ccccc1)C(=O)N[C@@H](Cc1ccccc1)C(=O)N[C@H](C=O)C[C@@H]1CCNC1=O | viral replication |  | plaque reduction | Vero E6 | USA-WA1/2020 | 3 days | > 5 |
